Experimental data collected from several papers.
Every numbered part comes from another study and shows a few of its results, in no order. Positions count from the first letter of the parent shown.

Set 1 — technique: RNA Bind-n-Seq; molecule type: RNA; medium: in vitro; tested at: 365 nM; baseline: no-protein control; direction: higher = stronger binding; endpoint: RBNS enrichment (R)
Target: RNA binding protein fox-1 homolog 2, RRM domain, GST-SBP tag (RBFOX2, Homo sapiens, UniProt O43251-10, residues 100-194)
Setting: natural RNA segment, single round, ends assumed
Shared flanks, not repeated: GGGAGUUCUACAGUCCGACGAUC … UGGAAUUCUCGGGUGCCAA
Residues (chain): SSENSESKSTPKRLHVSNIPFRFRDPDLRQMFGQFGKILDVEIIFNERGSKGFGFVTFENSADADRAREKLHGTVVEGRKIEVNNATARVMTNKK
CCUUCAUUUUAACUGUUAUGUCAUACUGUUAUGUUGACAUAUUUCUUUAUAAGAGAAUAGAGGCAAAAGUAUAGAACUGAGGAUCAUUUGUAUUUUUGAGUUGGAAAUUA: 0.624
CUUAGAUAUCUUAGUUAUCUUUUGUUGACAGAUGAAUGGGAAUUAACAAUAGCUUUAUGUCUUUGUGAAAAUGAAAUUUACUUUUAGUUUCAUAUUAUAUUUAAAGACAU: 0.63
GUGACUGUCACAACUGUUAUGUUUUCCAGUAAACUAGAAGUACGAUAUUUGAUAAUUAUAUUUGUAUUUCACCACCUAAAUGUAAUGUUGAUUCCUCAAGAAUGAAAUGA: 1.34
UUAACCACACAUUGUGGGUGAUGGGAAGACGAUUUCAGCUGACAGAGUUAAUGGCAACCAAUAAUGGUGGCCUGUAGCUGCUAAGAGCUUCACGCAGGUUUGGCCUGGGC: 0.272
UUAUUACCAAAAAUGACAGAAUAUUCUUGAUCAAAUGUCUAGAUAUAUUUUUAAUAUUUGGGGCAUGAGUUGUCCCUGUUUGAGAGUUCCCAUUACUAAUGUAGAAAUGU: 0.377
CCAGCCCUGCAGGGGCUGUACCCAGCUUGGCCUUAGCCCAUCUAAGUGCUGUCAACUGGUCUCCCACUGUCACUCCCACUCAUUUCAUUUGGACACAGGAAAUGUUGAUA: 0.391
ACCUUUUCACUAACCCCACUUCUGUGUGUUCUGCAUGGCGCCUGCCCCAGGGCAUCUGCCAACUCCAGUAUCAGCUCUCACAGUGUACUUGGUACCAUCCCUGGGCUCUG: 0.306
UGUGCAGAAUACUCAACAAUGUUCAAAGACCUUCUUAACUAUUCAGAAGGCAGGAAGUCCUACACCAUAGUUAGAUGAACCUAACUGUACCUGGAAGUUGCCCAUUUAAC: 0.301
UCUAAGUAAAUCCUCAGUCUGGUCUAUAUUGUUACUUGCCUGUUUCCACUAGAAGGAGUCACCCAGGCAUUUAGUGAAUGAUAAUCCUAGAAGUUGAGUCUGAGUACAUC: 0.341
UGAGAAAAUAGUUAACAAUUACUGUCAGGUGUCAUCACUGUUCAAAAGGUAAGCACAUUUAGAAUUUUGUUCUUGACAGUUAACUGACUAAUCUUACUUCCACAAAAUAU: 0.231
GACAAAUCACCACCACCAGUGUUAAGUGCUUCUGGAUUCAUGGGUGAGUUCCCUGGGCAGCCCCCAGGAAGGCCUUCCAGAUCUGGCUCCAGGGUCACCACCUGUCACAG: 0.162
UUCUGUAAGCACUGACCUGGGUAAGGCAGAGGGUAGGAGUCACCAUCCCUCCUCUGCCAAUAUCGCUACAACUCCUGCCUCCAGCACUAGGCUAUAACUUUGGAGUGAUA: 0.326

Set 2 — target: DBP, bZIP domain (human); technique: DHFR protein complementation; medium: yeast; baseline: wild-type JUN-FOS pair; direction: higher = stronger binding; endpoint: binding fitness
Setting: single substitutions, most at no-binding floor
Starting sequence: JUN, bZIP domain (human); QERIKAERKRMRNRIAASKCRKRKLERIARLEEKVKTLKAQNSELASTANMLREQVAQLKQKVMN; partner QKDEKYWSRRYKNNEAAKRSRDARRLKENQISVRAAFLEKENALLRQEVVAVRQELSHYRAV
L52A: -1.33 natural log
E32T: -1.53 natural log
A29H: -1.03 natural log
L38D: -1.46 natural log
A57W: -1.51 natural log
Q55T: -1.55 natural log
A46R: -1.36 natural log
L45D: -1.52 natural log
L31V: -1.55 natural log
K39I: -1.47 natural log
K36V: -1.51 natural log
T37D: -1.41 natural log
E44W: -1.43 natural log
E32K: -1.55 natural log
S43D: -1.06 natural log
E54G: -1.43 natural log
R53N: -1.54 natural log
T48K: -1.29 natural log
L52N: -1.51 natural log

Set 3 — target: CCND1, cyclin fold, Cln2 fusion (human); technique: yeast growth competition, sequencing; medium: yeast; setting: weak parent motif; baseline: not given; direction: higher = stronger binding; endpoint: normalised enrichment score
Starting sequence: CUX1 docking peptide (human); SRIRRELFIEEIQ
R5A L7A: 0.407
R4A: 1.02
E10A: 0.286
E6A: 0.122
F8A: 0.324
L7A: 0.33
E11A: 0.592
R5K: 0.231
I3A: 1.34
R5K F8L: 0.409

Set 4 — technique: universal PBM; molecule type: double-stranded DNA, one strand shown; medium: in vitro; tested at: not given; direction: higher = stronger binding; endpoint: E-score
Target: Sal-like protein 4, full length isoform B (SALL4, Homo sapiens, UniProt Q9UJQ4-2, residues 1-616)
Setting: 8-mer, flanks averaged, mean of replicates
Construct (chain): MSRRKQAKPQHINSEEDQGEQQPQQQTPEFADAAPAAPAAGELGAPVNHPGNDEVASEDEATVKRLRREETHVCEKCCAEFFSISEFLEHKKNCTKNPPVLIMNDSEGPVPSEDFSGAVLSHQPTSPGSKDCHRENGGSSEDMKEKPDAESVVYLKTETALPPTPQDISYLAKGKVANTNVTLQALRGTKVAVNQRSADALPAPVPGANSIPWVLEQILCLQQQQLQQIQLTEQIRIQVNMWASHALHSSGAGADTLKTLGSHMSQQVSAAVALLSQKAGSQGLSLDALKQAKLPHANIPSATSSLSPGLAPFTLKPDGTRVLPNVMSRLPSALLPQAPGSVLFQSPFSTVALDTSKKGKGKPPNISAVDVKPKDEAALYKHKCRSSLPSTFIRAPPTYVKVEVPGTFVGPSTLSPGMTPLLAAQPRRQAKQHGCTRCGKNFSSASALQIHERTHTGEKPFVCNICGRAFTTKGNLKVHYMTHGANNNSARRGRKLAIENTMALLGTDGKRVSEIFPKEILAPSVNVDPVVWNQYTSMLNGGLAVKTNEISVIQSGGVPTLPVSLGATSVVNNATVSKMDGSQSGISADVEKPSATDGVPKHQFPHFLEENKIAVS
AAAGGCGT: -0.112
TAGCTCCA: -0.0401
GCAACCGC: -0.163
CTGAAACA: 0.152
GTGAGACA: -0.0735
CGTTTCAA: 0.0795
ACGCTTAG: -0.0086
AGAAGTGA: 0.0215
AACTCCCA: -0.102
CGAAGGTA: 0.0438
CTTAATTA: 0.327
CAACTCCA: -0.0987
AGGAAACG: 0.0276
ATAGCCTG: -0.00541
CCATGCTA: 0.0219
CTCCTTGA: -0.049
CAGCTAGG: -0.201
AGTCTCCG: -0.237
AGTGACAC: -0.0249
AGCAGCCT: -0.115
TCCATACA: 0.149
ACTGAGAC: -0.144
ATGAGAGA: 0.153
AAAGGCAA: 0.134
CGTGCGAC: -0.186

Set 5 — technique: DHFR PCA, deep sequencing; medium: yeast; together with: (+)-ABA 0.11 µM; baseline: wild-type fitted maximum; direction: higher = stronger binding; endpoint: relative binding score
Target: ABI1, truncated, D143A, DHFR fusion (Arabidopsis thaliana)
Setting: methotrexate growth selection, single substitutions
Starting sequence: PYL1, truncated, DHFR fusion (Arabidopsis thaliana); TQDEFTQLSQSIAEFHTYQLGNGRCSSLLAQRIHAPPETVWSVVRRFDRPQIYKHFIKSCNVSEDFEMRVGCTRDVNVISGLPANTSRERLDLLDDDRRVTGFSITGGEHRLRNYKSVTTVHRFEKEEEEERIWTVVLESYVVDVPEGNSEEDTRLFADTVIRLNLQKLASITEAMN; partner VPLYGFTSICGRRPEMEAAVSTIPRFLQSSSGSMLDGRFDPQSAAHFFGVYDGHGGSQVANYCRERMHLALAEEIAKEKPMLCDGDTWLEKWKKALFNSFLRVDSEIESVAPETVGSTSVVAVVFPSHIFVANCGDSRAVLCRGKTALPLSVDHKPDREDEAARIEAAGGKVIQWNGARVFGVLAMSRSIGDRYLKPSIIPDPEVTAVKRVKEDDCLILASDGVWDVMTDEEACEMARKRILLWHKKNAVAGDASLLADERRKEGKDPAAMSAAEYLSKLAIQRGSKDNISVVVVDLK
I57G: -1.59%
D65G: 28.1%
I12C: -0.935%
C72G: 3.03%
D75P: 3.75%
A175I: 2.7%
D48M: -1.76%
G107D: 30.3%
E127V: 35.8%
N85F: 65.1%
E14W: -1.5%
G71A: 2.53%
G81A: 10.3%
V118E: -2.26%
L166Q: 5.35%
P50R: -0.933%

Set 6 — technique: RNA Bind-n-Seq; molecule type: RNA; medium: in vitro; tested at: 100 nM; baseline: input RNA pool; direction: higher = stronger binding; endpoint: bound/input enrichment
Target: RING finger protein unkempt homolog, zinc fingers 1-6, SBP tag (UNK, Homo sapiens, UniProt Q9C0B0, residues 30-357)
Chain of UniProt Q9C0B0 (30-357, looked up): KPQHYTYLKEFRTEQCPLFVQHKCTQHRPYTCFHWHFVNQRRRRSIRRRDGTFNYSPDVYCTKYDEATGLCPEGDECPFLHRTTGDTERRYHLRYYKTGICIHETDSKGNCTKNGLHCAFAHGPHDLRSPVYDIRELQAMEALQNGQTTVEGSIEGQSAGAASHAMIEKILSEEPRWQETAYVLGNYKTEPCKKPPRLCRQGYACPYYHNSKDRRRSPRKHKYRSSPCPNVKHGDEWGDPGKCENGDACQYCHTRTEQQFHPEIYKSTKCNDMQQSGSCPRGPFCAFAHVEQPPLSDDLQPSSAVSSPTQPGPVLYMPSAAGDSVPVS
Setting: RNA with constant flanks, vertebrate orthologous sites, ends assumed
Shared flanks, not repeated: GGGAGUUCUACAGUCCGACGAUC … CAACAGAGGAUUGAGCAUCA
CAUGUCCUUGUUACUGUGGUAUUUAAAAUAUCCAUAGUACUCACUUUUUCCAAAUGAUUCUAUUAAUUGCCUAGAAAUAUCUCUUAUCUAUUAUUUAUCAAUAUUUCCCAGUAUUUUUAU: 0.808 ratio
GUCAUCUGACUGGAUGAAGACUGUUCCAAGUUAUAACCAAACAAAUAGCUCCAUGGACUUUCGAAAUUAUAUGAUGAGAGAUGAGAAUUUGGAACCACUGCCCAAAAACUGGGAAAUGGC: 0.543 ratio
UACCUCCUGAACUUCUAGCUUUCAAGUUGUGGCUGUUUUAGAUACUGGUUUUCUUUUCUUUAGAAUUUUUCCCUGUUUCCCACCUUCUCUUCCCCUGUUCCCAAGGUCUGACUCAUGGAU: 1.64 ratio
CCAGUUUGUAUGUACAUUACUCAUAUUCCUCUCUGUUUUGUUGGGAAAAAAAAAGACAUUUUAACCUUUUUUAAGGUUGUUGAUUUAAUUUCAUGUUAUUAGGUUGCAUGAUGUUGCCCU: 0.23 ratio
CGCAUGAGCAUCUAUCCAGUUUUAAGCCACUUCCUGAUAAGGCUCUCCAUGUAUUUAUCCUAUUGACACCCCUGUUUUAUGAAUGGCAGUGUGAGUGCCGAGGGGCUCGGUGUUUACAGC: 0.45 ratio
CUCACUUCCAGGUUGGACCUAGUGGGAAAGUCAUAGGAAUUGACCACAUUAAAGAGCUAGUAGAUGACUCAAUAAAUAAUGUCAGAAAGGAUGAUCCAAUGCUUUUGUCUUCAGGGAGGG: 0.801 ratio
UUUCGUUGUACUGCAAAUCAUCCUCGCUUUAAGCUAGCCGCCGUGAUUACUAGUCUGUGCUAACAGAAUCAUUUACUACUACCUUUUAAUUAUGUGCUUUGUCUGAUACCUGAAACCAGU: 0.867 ratio
AUUUCAAAUGUAGUUAGUUAUAUUUAAUGACCUCAUUCCUGAGUUCCUUUUUCAUUAAUGUAGCAUUCAUUUAUUUCUACUUGCUGUUUUAAUAAUAUGAAUAAAUAGAAGAUCUGUGCU: 0.401 ratio
CUCCCUACUCCUGGGUGUGUGACUGAGGGGGAAGCAUCCACCAGCGCUGCAAGGGGUCCCUAGUAUUUUUUGCUGCCUCGGAGUCCCAGAAGCCUUCAAGCAGAAGUGGCAGUAGUUGGU: 1.2 ratio
CAGCUGAUUCACUCAUUGGGAGAGCUGCACAUAUAGCUGUUCUUGAUUCGGAAAUAUUUUUAGAGAAAUUCUUUCUGGUUGCUGCCCUCAAAUAUUUCCAAUAGUAUAAAAGCAUUGUUA: 1.48 ratio
CAUUAACACACAAAAUGUCUCCAGGGGGGUAUUAGAUUUGAUUUCUUACAUAUAAAACAAACUAGCCAACCAUUUUUAAAGUAGAAGAGGGUCUCUGAUAGUAAAUGAAAUACUUUUUUU: 1.58 ratio

Excerpt of the above (set 4):
CGAAGGTA: 0.0438
GTGAGACA: -0.0735
ACGCTTAG: -0.0086
GCAACCGC: -0.163
CTGAAACA: 0.152
AGAAGTGA: 0.0215
ATAGCCTG: -0.00541
CAACTCCA: -0.0987
